# Published values of several laboratories.
# Each numbered part is a random draw from the data of one study; scales do not carry over between parts. Changes are numbered by the printed parent chain.

# Block 1
# Target: CCNB3, cyclin fold, Cln2 fusion (human)
# Method: yeast growth competition, sequencing
# Sample: yeast
# Notes: weak parent motif
# Baseline: not given
# Reading: higher = stronger binding
# Parent: PKMYT1 docking peptide (human); SFEPRNLLSLFED; partner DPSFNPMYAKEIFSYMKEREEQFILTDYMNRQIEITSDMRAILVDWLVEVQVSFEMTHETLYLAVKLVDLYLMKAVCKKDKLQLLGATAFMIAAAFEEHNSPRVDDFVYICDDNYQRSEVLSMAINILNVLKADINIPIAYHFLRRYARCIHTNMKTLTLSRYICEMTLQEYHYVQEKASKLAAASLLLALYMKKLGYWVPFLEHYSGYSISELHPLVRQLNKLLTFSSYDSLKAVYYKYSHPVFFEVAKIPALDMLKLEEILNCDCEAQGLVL
Substitution,normalised enrichment score
L7Y,0.2
F11L,0.126
S1C,0.572
L10N,0.349
F2W,0.319
F11R,-0.0985
S9M,0.406
P4I,0.043
L7G,0.384
N6R,0.732
L7S,0.0855
L10E,1.29
N6Q,0.782
D13N,0.862
L8S,0.323
R5I,0.7
F2S,0.0431
S1N,0.42
S1L,0.44
S9T,0.502

# Block 2
# Target: RNA binding protein fox-1 homolog 2, RRM domain, GST-SBP tag (RBFOX2, Homo sapiens, UniProt O43251-10, residues 100-194)
# Method: RNA Bind-n-Seq
# Molecule type: RNA
# Sample: in vitro
# Tested at: 365 nM
# Notes: natural RNA segment, single round, ends assumed
# Baseline: no-protein control
# Reading: higher = stronger binding
# All sequences stand within: GGGAGUUCUACAGUCCGACGAUC … UGGAAUUCUCGGGUGCCAA
Sequence,RBNS enrichment (R)
AUAUACAAACAUGUAUGUAUACAUGACCUUAAUGGAUCAUAGAAUUGCAGUCAUUUGGUGCUCUGCUAACCAUUUAUAUAAAACUUAAAAACAAGAGAAAAGAAAAAUCA,0.418
UUGCAACUCUGUUCUUUGGAAAGAAUAAAAGCAUUUUUUUUCACUUGCUAACAUGCUCACAAAUGUGAGAGAAGAGUCAUUAAAAGCUUUACUUACUGGGUCAGUGCGUC,0.66
CUGGAAUGGUGUUUUGUCAGACUUCCAAAUCCUGGAAGGACACAGUGAUGAAUGUACUAUGUCUGAACAUAGAAACUCGGGCUUGAGUGAGAAGAGCUUGCACAGCCAAC,18.6
CUGUCAGCGUUUGGCAUUUAAUCUUUUUGCCAUUUUAAUUUGCCUACUUACAUUGUGUUCAUAUAUUUUGAAAAGACUUCUCUACUUUACCGUGGUCCUCCGUUGUGAGU,0.423
GUAAGAAGAUACAGCUACAGAAAAUAGUUGCGUGUAUGGGAGAACAGUCAUUGUAAUUGGGUAGUUUUGUUAAUAAAUAUUUUUAAAUCUUGCUUUUCAGAAAUUACCGA,0.363
CAGGGGCCCCGACUCUUAAGGGGGAGGGUGUGGCUUAACUGCAGCGUUGGAACCUUAAAGUGGGAAAGAUAGGGUCAAGUUAAAGUAAUAAAAUGAGUCAUGUCUCCCGA,0.499
CUGCGUAUGUUAAGAGGAAAUCAGUUUAAAAUGCCUGCUAAUCAAAUGUCGACUCAGCUAACCAUAUGUCCAGGUUGCUGCAGAGUUUCUUUCAAAUCUGAGUGUUGCCU,13.6
GUAUUUUACAUGAAGCUGUAUAAUUAAUUGUCAUUAUUUUUGUUAGCAAAGAUUAAAUGUGUCAUUGGAAGCCAUCCCUUUUUUUACAUUUCAUACAACAGAAACCAGAA,0.583

# Block 3
# Target: RING finger protein unkempt homolog, zinc fingers 1-6, GST-SBP tag (UNK, Homo sapiens, UniProt Q9C0B0, residues 30-357)
# Sequence of UniProt Q9C0B0 (30-357, looked up): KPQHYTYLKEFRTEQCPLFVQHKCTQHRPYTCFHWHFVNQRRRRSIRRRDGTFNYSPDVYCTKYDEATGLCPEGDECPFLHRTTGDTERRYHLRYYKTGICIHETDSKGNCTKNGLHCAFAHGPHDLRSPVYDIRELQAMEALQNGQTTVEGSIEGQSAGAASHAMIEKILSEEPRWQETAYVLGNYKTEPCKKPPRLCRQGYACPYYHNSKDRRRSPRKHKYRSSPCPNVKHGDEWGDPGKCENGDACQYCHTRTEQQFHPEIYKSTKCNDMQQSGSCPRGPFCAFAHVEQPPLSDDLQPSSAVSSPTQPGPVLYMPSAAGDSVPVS
# Method: RNA Bind-n-Seq
# Molecule type: RNA
# Sample: in vitro
# Tested at: not given
# Notes: RNA with constant flanks, human-mouse chimeric sites, ends assumed
# Baseline: input RNA pool
# Reading: higher = stronger binding
# All sequences stand within: GGGAGUUCUACAGUCCGACGAUC … CAACAGAGGAUUGAGCAUCA
Sequence,bound/input enrichment [ratio]
CGGAGCCCUCCUCUCCCACAGGCCCAAGAUAUAACCCACCAGUGCCUUCUGUCUGCUUGUCAGCUCUGUCAAUCACGCCUGUCCUCUCACGCCCACACUCCCCAGCCAAAGUGGGGAGGG,0.456
AACAGAUUGUCUUUAAGCAUUCCAAGCAAUGCUUGGGGGGUGAUCAUUGUUGCCCAUGUGCCUUCUGACUGAGCUUUAAUGCUGUUCCAUGUUACAUCUUUCCUUCAUUGCAUAUUUGUU,0.148
UUGAAAACUGAUUCAAGCAAGUUUGAAUAUCACAAUGUUAGCUUUCUAAUUCCAUAAAAGUACUUGGUUUUUACAGUUUAUAAUCUGACAUCACCCCCCGUUUAUAAGUAAAGAGCAACU,0.967
AAUGUUCUUAAUAUUUUUGAAUAAAUGAAGCUAAAAUGUCUGCUUUUGGUACAACACGCAUUAAUAAAAGGUUAAGUUUUGUUUUCCACUGAAGUACUAUUUAACAUCUCAGAAAAAAAC,0.319
CAGCCUCAGAGCCCAGACUUCCUGGAUAUUACCAACCCCAAAGCCGUAUUAGAAAAUGCAUUGAGAAACUUUGCCUGUCUGACGACUGGAGAUGUGAUUGCUAUCAACUACAAUGAGAAG,0.42
UUGCUACUGACUCCCUGGGUUAAAUUCCUGUGGGAAUCAUACAGGCAGUGUUUGGACCUUCUUAGAAACAAUUCUAGAGUAGAGCGCCUUUACCAUGAUAUCGCCCAACAAGCUUUCAAA,0.237
CAGUCCCCGUGUCCCAGUGCAGGACGAGAACAUGGACAACUCAAAGCGGACCCUCUAUUGUAGUUCUUGAUUCUCGAAAUGUGCUAUUGUUUUUAAACUUUUUUUUUUUUUUUUUAAAGA,0.455
GGCCUGGACCUUCCUGGGCUAGUGCAAAAUAGCGGCAGUGGAGGCUCGAGAGGAAAGUUUGUUAGUGGAGGCAGUGGUAGAGGCCGUCAUGUACGGUCCUUUACUCGAUAGAUGUGUUCU,0.47

# Block 4
# Target: Histone acetyltransferase KAT6A, winged helix 1, GST fusion (KAT6A, Homo sapiens, UniProt Q92794, residues 1-85)
# Method: protein binding microarray
# Molecule type: double-stranded DNA, one strand shown
# Sample: in vitro
# Tested at: not given
# Notes: 8-mer, flanks averaged, mean of 2 arrays, mostly near background
# Baseline: not given
# Reading: higher = stronger binding
# Target sequence (chain): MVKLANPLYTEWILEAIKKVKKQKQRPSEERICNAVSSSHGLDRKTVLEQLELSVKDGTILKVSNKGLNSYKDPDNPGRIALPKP
Sequence,E-score
GGCCTTCA,0.00951
AGAACCCG,0.159
AGGCTATG,-0.13
ACGGTTAA,0.11
GTGTGGGA,-0.0778
AAAGAAGA,-0.0498
TATTCAAA,-0.0788
CGGTTAGC,0.201
TATATGAA,-0.0817
AGATCAAA,-0.0773
CCTCAACC,-0.151
GAGGGGGC,-0.0865
AGATATGG,-0.257
TCGTGTCA,-0.159
ATATGATA,-0.121
AGGTCAAC,-0.223
ATGCTCTC,-0.0847
AATCAGGA,-0.0608
ATCGCAGC,0.0174
GCGGCTCA,0.283
GACCACAC,-0.199
ATGTTTTA,-0.204
GGGAATTA,-0.03
ACAGATAG,-0.239

# A few entries again (block 2):
Sequence,RBNS enrichment (R)
AUAUACAAACAUGUAUGUAUACAUGACCUUAAUGGAUCAUAGAAUUGCAGUCAUUUGGUGCUCUGCUAACCAUUUAUAUAAAACUUAAAAACAAGAGAAAAGAAAAAUCA,0.418
GUAUUUUACAUGAAGCUGUAUAAUUAAUUGUCAUUAUUUUUGUUAGCAAAGAUUAAAUGUGUCAUUGGAAGCCAUCCCUUUUUUUACAUUUCAUACAACAGAAACCAGAA,0.583
CUGUCAGCGUUUGGCAUUUAAUCUUUUUGCCAUUUUAAUUUGCCUACUUACAUUGUGUUCAUAUAUUUUGAAAAGACUUCUCUACUUUACCGUGGUCCUCCGUUGUGAGU,0.423
CUGCGUAUGUUAAGAGGAAAUCAGUUUAAAAUGCCUGCUAAUCAAAUGUCGACUCAGCUAACCAUAUGUCCAGGUUGCUGCAGAGUUUCUUUCAAAUCUGAGUGUUGCCU,13.6
GUAAGAAGAUACAGCUACAGAAAAUAGUUGCGUGUAUGGGAGAACAGUCAUUGUAAUUGGGUAGUUUUGUUAAUAAAUAUUUUUAAAUCUUGCUUUUCAGAAAUUACCGA,0.363
CAGGGGCCCCGACUCUUAAGGGGGAGGGUGUGGCUUAACUGCAGCGUUGGAACCUUAAAGUGGGAAAGAUAGGGUCAAGUUAAAGUAAUAAAAUGAGUCAUGUCUCCCGA,0.499
